Experimental data from different studies.
Lines come from different studies, so protocols differ.
Organism: Enterococcus faecium

Compound	assay	system	setting	scale	MIC
CN[C@H](CC(C)C)C(=O)N[C@H]1C(=O)N[C@@H](CC(N)=O)C(=O)N[C@H]2C(=O)N[C@H]3C(=O)N[C@H](C(=O)N[C@H](C(=O)O)c4cc(O)cc(O)c4-c4cc3ccc4O)[C@H](O)c3ccc(c(Cl)c3)Oc3cc2cc(c3O[C@@H]2O[C@H](CO)[C@@H](O)[C@H](O)[C@H]2O[C@H]2C[C@](C)(N)[C@H](O)[C@H](C)O2)Oc2ccc(cc2Cl)[C@H]1O		VanB vancomycin-resistant	18 h, 37 °C, 0.3 mM ZnSO4 LB		64 µg/mL
CN[C@H](CC(C)C)C(=O)N[C@H]1C(=O)N[C@@H](CC(N)=O)C(=O)N[C@H]2C(=O)N[C@H]3C(=O)N[C@H](C(=O)N[C@H](C(=O)O)c4cc(O)cc(O)c4-c4cc3ccc4O)[C@H](O)c3ccc(c(Cl)c3)Oc3cc2cc(c3O[C@@H]2O[C@H](CO)[C@@H](O)[C@H](O)[C@H]2O[C@H]2C[C@](C)(N)[C@H](O)[C@H](C)O2)Oc2ccc(cc2Cl)[C@H]1O		VRE vanB			86 µM
Cc1ccc2[nH]c3c(c2c1)CCCC3NCCc1ccc(Br)cc1 (centres unmarked)	broth microdilution	BM4147 vancomycin-resistant			4 µg/mL
CC[C@H](C)[C@H](N)C(=O)N[C@@H](CCCNC(=N)N)C(=O)N[C@H](C(=O)N[C@@H](Cc1c[nH]c2ccccc12)C(=O)N[C@@H](CCCCN)C(=O)N[C@@H](CCCCN)C(=O)N[C@@H](Cc1ccccc1)C(=O)N[C@H](C(=O)N[C@@H](CCCNC(=N)N)C(=O)N[C@@H](CCCCN)C(=O)N[C@@H](CCSC)C(=O)N[C@@H](CCCCN)C(=O)N[C@@H](C)C(=O)N[C@H](C(=O)N[C@@H](Cc1ccc(O)cc1)C(=O)N[C@@H](Cc1c[nH]cn1)C(N)=O)[C@@H](C)CC)C(C)C)C(C)C	broth dilution	KCTC 13225			25 µM
CCCCCCC#Cc1cncc(-c2nnc(Sc3ccc([N+](=O)[O-])cc3[N+](=O)[O-])n2C)c1		vancomycin-resistant		no activity at value	≥ 20 µg/mL
CC[C@H](C)[C@H](NC(=O)[C@H](CC(C)C)NC(=O)[C@H](CCCNC(=N)N)NC(=O)[C@@H](N)CCCNC(=N)N)C(=O)N[C@@H](CC(C)C)C(=O)N[C@H](C(=O)N[C@@H](CCCCN)C(=O)N[C@H](C(=O)NCC(=O)N1CCC[C@H]1C(=O)N[C@H](C(=O)N[C@H](C(=O)N[C@@H](Cc1ccc(O)cc1)C(=O)N[C@@H](CCCCN)C(=O)N[C@@H](Cc1ccc(O)cc1)C(=O)N[C@@H](Cc1ccccc1)C(=O)N[C@@H](CCCCN)C(=O)N[C@@H](CCCCN)C(=O)N[C@@H](CCC(N)=O)C(=O)N[C@@H](CC(C)C)C(=O)N[C@@H](CCCCN)C(=O)N[C@@H](CCCCN)C(=O)N[C@@H](CC(C)C)C(N)=O)[C@@H](C)CC)[C@@H](C)CC)[C@@H](C)O)[C@@H](C)O		ATCC 51559, vancomycin-resistant, Mueller-Hinton broth	24 h		4 µM
CCCCCCC#Cc1cncc(-c2nnc(SCc3ccc([N+](=O)[O-])o3)n2CCCN)c1	broth microdilution	ATCC 51559 MDR VRE	18 to 24 h, 37 °C		64 µg/mL
CCCCCCCCCC(=O)N[C@@H](Cc1c[nH]c2ccccc12)C(=O)N[C@H](CC(N)=O)C(=O)N[C@@H](CC(=O)O)C(=O)N[C@@H]1C(=O)NCC(=O)N[C@@H](CCCN)C(=O)N[C@@H](CC(=O)O)C(=O)N[C@H](C)C(=O)N[C@@H](CC(=O)O)C(=O)NCC(=O)N[C@H](CO)C(=O)N[C@@H]([C@H](C)CC(=O)O)C(=O)N[C@@H](CC(=O)c2ccccc2N)C(=O)O[C@@H]1C		resistant isolate	16 h, added: Ca2+ 5 mM		4 µg/mL
CC[C@H](C)[C@H](NC(=O)[C@H](CC(C)C)NC(=O)[C@H](CCCNC(=N)N)NC(=O)[C@@H](N)CCCNC(=N)N)C(=O)N[C@@H](CCCNC(=N)N)C(=O)N[C@H](C(=O)N[C@@H](CCCCN)C(=O)N[C@H](C(=O)NCC(=O)N1CCC[C@H]1C(=O)N[C@H](C(=O)N[C@H](C(=O)N[C@@H](Cc1ccc(O)cc1)C(=O)N[C@@H](CCCCN)C(=O)N[C@@H](Cc1ccc(O)cc1)C(=O)N[C@@H](Cc1ccccc1)C(=O)N[C@@H](CCCCN)C(=O)N[C@@H](CCCCN)C(=O)N[C@@H](CCC(N)=O)C(=O)N[C@@H](CC(C)C)C(=O)N[C@@H](CC(C)C)C(=O)N[C@@H](CCCCN)C(=O)N[C@@H](CCCCN)C(N)=O)[C@@H](C)CC)[C@@H](C)CC)[C@@H](C)O)[C@@H](C)O		ATCC 51559, vancomycin-resistant, Mueller-Hinton broth	24 h		16 µM
CN[C@H](CC(C)C)C(=O)N[C@H]1C(=O)N[C@@H](CC(N)=O)C(=O)N[C@H]2C(=O)N[C@H]3C(=O)N[C@H](C(=O)N[C@H](C(=O)O)c4cc(O)cc(O)c4-c4cc3ccc4O)[C@H](O)c3ccc(c(Cl)c3)Oc3cc2cc(c3O[C@@H]2O[C@H](CO)[C@@H](O)[C@H](O)[C@H]2O[C@H]2C[C@](C)(N)[C@H](O)[C@H](C)O2)Oc2ccc(cc2Cl)[C@H]1O		VanA vancomycin-resistant			> 16 µg/mL
CC[C@H](C)[C@H](NC(=O)[C@H](CC(C)C)NC(=O)[C@H](CCCNC(=N)N)NC(=O)[C@@H](N)CCCNC(=N)N)C(=O)N[C@@H](CCCNC(=N)N)C(=O)N[C@@H](CCCCN)C(=O)N[C@@H](CC(C)C)C(=O)N[C@@H](CCCCN)C(=O)NCC(=O)N[C@@H](CC(C)C)C(=O)N[C@@H](CCCCN)C(=O)N[C@@H](CCCCN)C(=O)N[C@@H](Cc1ccc(O)cc1)C(=O)N[C@@H](CC(C)C)C(=O)N[C@@H](Cc1ccc(O)cc1)C(=O)N[C@@H](Cc1ccccc1)C(=O)N[C@@H](CCCCN)C(=O)N[C@@H](CC(C)C)C(=O)N[C@@H](CCC(N)=O)C(=O)N[C@@H](CC(C)C)C(=O)N[C@@H](CC(C)C)C(=O)N[C@@H](CCCCN)C(=O)N[C@@H](CCCCN)C(N)=O		ATCC 51559, vancomycin-resistant, Mueller-Hinton broth	24 h		4 µM
CN[C@H](CC(C)C)C(=O)N[C@H]1C(=O)N[C@@H](CC(N)=O)C(=O)N[C@H]2C(=O)NC3C(=O)N[C@H](C(=O)N[C@H](C(=O)NCCC[N+](C)(C)C)c4cc(O)cc(O)c4-c4cc3ccc4O)[C@H](O)c3ccc(c(Cl)c3)Oc3cc2cc(c3OC2OC(CO)C(O)[C@H](O)[C@@H]2O[C@H]2CC(C)(NCc3ccc(-c4ccc(Cl)cc4)cc3)[C@H](O)[C@H](C)O2)Oc2ccc(cc2Cl)[C@H]1O (some centres unmarked)		ATCC BAA-2317 VanA VRE	no additive		0.3 µg/mL
CC(C)C[C@H](NC(=O)[C@@H](NC(=O)[C@H](CCCNC(=N)N)NC(=O)[C@H](CCC(N)=O)NC(=O)[C@H](Cc1ccccc1)NC(=O)[C@H](Cc1ccc(O)cc1)NC(=O)[C@H](CC(N)=O)NC(=O)[C@H](Cc1c[nH]c2ccccc12)NC(=O)[C@@H](NC(=O)[C@H](CCCNC(=N)N)NC(=O)[C@H](CCCCN)NC(=O)[C@@H](N)Cc1ccccc1)C(C)C)C(C)C)C(=O)N[C@H](C(=O)N[C@@H](CCCCN)C(=O)N[C@@H](CCCCN)C(=O)N[C@@H](Cc1ccc(O)cc1)C(=O)N[C@@H](C)C(N)=O)C(C)C	broth dilution	KCTC 13225			25 µM
CCCCCCC#Cc1cncc(-c2nnc(SCc3cc([N+](=O)[O-])cc([N+](=O)[O-])c3)n2CCOC2OC(CN)C(O)C2O)c1 (centres unmarked)	broth microdilution	ATCC 51559 MDR VRE	18 to 24 h, 37 °C		32 µg/mL
